{"data": "Assay results pooled from the literature", "note": "Compare with care: the assays were run in different laboratories. ± marks the error that the study gave."}
{"SMILES": "COc1cc(Nc2ccnc3cc(C#N)ccc23)cc(OC)c1OC", "target": "COQ8A (Homo sapiens, UniProt Q8NI60)", "test": "target engagement, NanoBRET", "system": "HEK293 expressing NanoLuc fusion", "IC50 [µM]": 0.58}
{"SMILES": "CCOc1ccc(S(=O)(=O)NC(=O)Cc2ccc(C(F)(F)F)cc2)cc1Br", "target": "CGAS (Homo sapiens, UniProt Q8N884)", "test": "enzyme activity, inhibitor, Kinase-Glo ATP depletion", "setting": "25 °C, 100 nM enzyme", "IC50 [µM]": 31.1}
{"SMILES": "CC(=O)Nc1ccc(/C=C/c2c[nH]c3ccc(F)cc23)cc1", "target": "IDO1 (Homo sapiens, UniProt P14902)", "test": "enzyme activity, inhibitor", "IC50 [µM]": 15.1}
{"SMILES": "c1ccc(-c2cc(NCCCn3ccnc3)nc(-c3ccccn3)n2)nc1", "target": "CLEC1B, with podoplanin (Homo sapiens, UniProt Q9P126)", "test": "podoplanin binding, inhibitor, AlphaScreen", "setting": "together with: 50 nM biotinylated podoplanin-Fc", "IC50 [µM]": 5.3}
{"SMILES": "COc1ccc2[nH]cc(/C=C/c3ccc(NS(C)(=O)=O)cc3)c2c1", "target": "Amyloid-beta precursor protein, amyloid-beta peptide (APP, Homo sapiens, UniProt P05067)", "test": "Aβ42 oligomerisation, ELISA", "IC50 [µM]": 5.4}
{"SMILES": "CC(=NNC(=N)N)c1ccc2[nH]c(C(=O)Nc3ccc4cc[nH]c4c3)cc2c1", "target": "RPS6KA3 (Homo sapiens, UniProt P51812)", "test": "kinase activity, inhibitor, IMAP fluorescence polarization", "IC50 [µM]": "> 100"}
{"SMILES": "COc1ccc2[nH]c3c(C)c4cc[n+]([O-])cc4c(C)c3c2c1", "target": "Toll-like receptor 3 (Homo sapiens, UniProt O15455)", "test": "reporter gene, SEAP reporter", "system": "HEK-Blue hTLR3", "setting": "together with: poly(I:C)", "IC50 [µM]": "1.29 ± 0.68"}
{"SMILES": "O=C(Nc1ccc(Cl)cc1)C(NS(=O)(=O)c1cccc(C(F)(F)F)c1)c1ccccc1 (stereo not shown)", "target": "Uracil nucleotide/cysteinyl leukotriene receptor, long isoform (GPR17, Homo sapiens, UniProt Q13304)", "test": "calcium mobilization, antagonist", "system": "1321-N1", "IC50 [µM]": "18.2 ± 2.43"}
{"SMILES": "CN(C)C(=O)Cn1cc(-c2ccc(-c3cncc4ccncc34)cc2)cn1", "target": "CDK19 (Homo sapiens, UniProt Q9BWU1)", "test": "enzyme activity, SelectScreen", "IC50 [µM]": "< 1"}
{"SMILES": "O=C(O)c1cc(C(=O)N2CCC[C@H]2C(=O)O)cc([C@H]2CCN[C@@H]2C(=O)O)c1", "target": "Glutamate receptor ionotropic, NMDA 2B, with GluN1 (Grin2b, Rattus norvegicus, UniProt Q00960)", "test": "ion current, antagonist, two-electrode voltage clamp", "system": "Xenopus oocytes", "setting": "GluN1/GluN2B, together with: glycine 100 µM and glutamate 1 µM", "IC50 [µM]": "2.89 ± 0.1"}
{"SMILES": "CCn1nccc1N=CC1=Cc2cc3c(cc2[C@@H](c2cc(OC)c(OC)c(OC)c2)[C@@H]1C(=O)OC)OCO3", "target": "Tubulin alpha/beta heterodimer (Leishmania infantum, UniProt A0A381MCS3+A4HTR0)", "test": "tubulin polymerization, inhibitor", "setting": "37 °C, together with: tubulin 1.2 mg/mL", "IC50 [µM]": "7.5 ± 1.1"}
{"SMILES": "COc1ccccc1N=Nc1c(O)ccc2cc(S(=O)(=O)O)ccc12", "target": "Bcl-2-related protein A1 (Mus musculus, UniProt Q07440, C113S/P104K)", "test": "binding, fluorescence polarization", "setting": "together with: FITC-Noxa peptide", "IC50 [µM]": "> 400"}
{"SMILES": "CC1(C#Cc2cc(-c3nn(-c4nc(C(=O)O)cs4)c(CC4CC4)c3Cc3ccc(S(N)(=O)=O)c(F)c3)ccc2F)COC1", "target": "LDHA (Homo sapiens, UniProt P00338)", "test": "enzyme activity, inhibitor", "IC50 [µM]": 0.004}
{"SMILES": "COc1ccc(C(=O)Nc2ccc(-c3nc4ccccc4[nH]3)cc2)cc1", "target": "Moesin, with CD44 (Homo sapiens, UniProt P26038)", "test": "MSN-CD44 interaction, inhibitor, TR-FRET", "setting": "together with: CD44", "IC50 [µM]": 8}
{"SMILES": "COC(=O)/C=C/CNC(=O)c1c(C)n(C2CCCC2)c2ccc(OC)cc12", "target": "E3 ubiquitin-protein ligase NEDD4 (Homo sapiens, UniProt P46934)", "test": "ubiquitination, inhibitor, Ub-TR-FRET", "setting": "HECT domain", "IC50 [µM]": "8.76 ± 0.47"}
{"SMILES": "COc1ccc(C(CCc2ccc(O)cc2OC)c2cc(CCC(=O)c3ccc(O)cc3)c(OC)cc2O)cc1 (racemic)", "target": "ALOX5 (Homo sapiens, UniProt P09917)", "test": "5-LOX product formation, RP-HPLC", "system": "human PMNL", "setting": "together with: A23187 and arachidonic acid", "IC50 [µM]": "0.85 ± 0.15"}
{"SMILES": "O=C(NCc1ccc(Cl)cc1)[C@@H]1C[C@@H](O)CN1C(=O)c1ccncc1", "target": "von Hippel-Lindau disease tumor suppressor, with elongin B, C (VHL, Homo sapiens, UniProt P40337)", "test": "binding, fluorescence polarization", "setting": "10% DMSO, together with: FAM-HIF1α peptide tracer", "IC50 [µM]": "32 ± 1"}
{"SMILES": "CC(C)NC(=O)CSc1nc2ccc(NC(=O)CSc3ccccc3Cl)cc2s1", "target": "Estrogen receptor (ESR1, Homo sapiens, UniProt P03372)", "test": "reporter gene, antagonist", "system": "HEC-1 transfected ERα luciferase reporter", "IC50 [µM]": "20 to 50"}
{"SMILES": "NC(=O)c1cn(-c2ccc(F)cc2)c2ccc(CCc3cccnc3)cc2c1=O", "target": "Grm2 (Rattus norvegicus, UniProt P31421)", "test": "calcium mobilization, negative allosteric modulator", "IC50 [µM]": 0.466}
{"note": "Repeated from above:"}
{"SMILES": "COC(=O)/C=C/CNC(=O)c1c(C)n(C2CCCC2)c2ccc(OC)cc12", "target": "E3 ubiquitin-protein ligase NEDD4 (Homo sapiens, UniProt P46934)", "test": "ubiquitination, inhibitor, Ub-TR-FRET", "setting": "HECT domain", "IC50 [µM]": "8.76 ± 0.47"}
{"SMILES": "O=C(NCc1ccc(Cl)cc1)[C@@H]1C[C@@H](O)CN1C(=O)c1ccncc1", "target": "von Hippel-Lindau disease tumor suppressor, with elongin B, C (VHL, Homo sapiens, UniProt P40337)", "test": "binding, fluorescence polarization", "setting": "10% DMSO, together with: FAM-HIF1α peptide tracer", "IC50 [µM]": "32 ± 1"}
{"SMILES": "COc1ccc2[nH]c3c(C)c4cc[n+]([O-])cc4c(C)c3c2c1", "target": "Toll-like receptor 3 (Homo sapiens, UniProt O15455)", "test": "reporter gene, SEAP reporter", "system": "HEK-Blue hTLR3", "setting": "together with: poly(I:C)", "IC50 [µM]": "1.29 ± 0.68"}
